Measurements pooled from the literature.
Each numbered part is a random draw from the data of one study; scales do not carry over between parts. Several values in a cell are separate wells, animals, samples, runs or records.
Chain of UniProt P51817 (whole entry, looked up): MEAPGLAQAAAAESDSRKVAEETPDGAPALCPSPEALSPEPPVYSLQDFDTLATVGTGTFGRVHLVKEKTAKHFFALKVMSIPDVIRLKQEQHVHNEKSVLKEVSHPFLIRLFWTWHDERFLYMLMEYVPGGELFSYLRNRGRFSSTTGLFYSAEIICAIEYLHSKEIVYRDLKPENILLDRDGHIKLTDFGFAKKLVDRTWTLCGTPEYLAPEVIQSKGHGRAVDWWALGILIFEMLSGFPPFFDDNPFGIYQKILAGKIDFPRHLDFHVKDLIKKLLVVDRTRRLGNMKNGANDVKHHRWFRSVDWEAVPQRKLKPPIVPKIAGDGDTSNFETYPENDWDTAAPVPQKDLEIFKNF
Chain of UniProt O94921 (whole entry, looked up): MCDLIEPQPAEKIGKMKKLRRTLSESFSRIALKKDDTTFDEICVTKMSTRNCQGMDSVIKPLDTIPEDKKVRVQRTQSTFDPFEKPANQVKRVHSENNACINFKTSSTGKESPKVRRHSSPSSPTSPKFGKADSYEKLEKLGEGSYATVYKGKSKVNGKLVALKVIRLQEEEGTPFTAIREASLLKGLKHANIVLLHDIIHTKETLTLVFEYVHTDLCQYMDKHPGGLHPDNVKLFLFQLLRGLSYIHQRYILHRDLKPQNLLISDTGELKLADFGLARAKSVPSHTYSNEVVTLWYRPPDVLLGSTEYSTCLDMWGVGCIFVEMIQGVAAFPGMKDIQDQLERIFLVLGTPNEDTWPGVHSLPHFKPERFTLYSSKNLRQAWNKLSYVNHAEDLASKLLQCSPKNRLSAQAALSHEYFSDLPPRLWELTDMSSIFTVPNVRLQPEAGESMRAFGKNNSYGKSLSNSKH
Chain of UniProt P11802 (whole entry, looked up): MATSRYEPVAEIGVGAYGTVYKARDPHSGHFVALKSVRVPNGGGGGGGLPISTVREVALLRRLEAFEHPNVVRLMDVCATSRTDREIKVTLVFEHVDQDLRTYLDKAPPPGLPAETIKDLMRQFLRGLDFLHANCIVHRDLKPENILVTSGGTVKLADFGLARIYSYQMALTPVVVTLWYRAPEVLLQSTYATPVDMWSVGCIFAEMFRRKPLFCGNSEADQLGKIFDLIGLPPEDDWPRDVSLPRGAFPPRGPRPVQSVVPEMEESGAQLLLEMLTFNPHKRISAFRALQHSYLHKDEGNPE
Chain of UniProt P07949 (whole entry, unmodified, looked up): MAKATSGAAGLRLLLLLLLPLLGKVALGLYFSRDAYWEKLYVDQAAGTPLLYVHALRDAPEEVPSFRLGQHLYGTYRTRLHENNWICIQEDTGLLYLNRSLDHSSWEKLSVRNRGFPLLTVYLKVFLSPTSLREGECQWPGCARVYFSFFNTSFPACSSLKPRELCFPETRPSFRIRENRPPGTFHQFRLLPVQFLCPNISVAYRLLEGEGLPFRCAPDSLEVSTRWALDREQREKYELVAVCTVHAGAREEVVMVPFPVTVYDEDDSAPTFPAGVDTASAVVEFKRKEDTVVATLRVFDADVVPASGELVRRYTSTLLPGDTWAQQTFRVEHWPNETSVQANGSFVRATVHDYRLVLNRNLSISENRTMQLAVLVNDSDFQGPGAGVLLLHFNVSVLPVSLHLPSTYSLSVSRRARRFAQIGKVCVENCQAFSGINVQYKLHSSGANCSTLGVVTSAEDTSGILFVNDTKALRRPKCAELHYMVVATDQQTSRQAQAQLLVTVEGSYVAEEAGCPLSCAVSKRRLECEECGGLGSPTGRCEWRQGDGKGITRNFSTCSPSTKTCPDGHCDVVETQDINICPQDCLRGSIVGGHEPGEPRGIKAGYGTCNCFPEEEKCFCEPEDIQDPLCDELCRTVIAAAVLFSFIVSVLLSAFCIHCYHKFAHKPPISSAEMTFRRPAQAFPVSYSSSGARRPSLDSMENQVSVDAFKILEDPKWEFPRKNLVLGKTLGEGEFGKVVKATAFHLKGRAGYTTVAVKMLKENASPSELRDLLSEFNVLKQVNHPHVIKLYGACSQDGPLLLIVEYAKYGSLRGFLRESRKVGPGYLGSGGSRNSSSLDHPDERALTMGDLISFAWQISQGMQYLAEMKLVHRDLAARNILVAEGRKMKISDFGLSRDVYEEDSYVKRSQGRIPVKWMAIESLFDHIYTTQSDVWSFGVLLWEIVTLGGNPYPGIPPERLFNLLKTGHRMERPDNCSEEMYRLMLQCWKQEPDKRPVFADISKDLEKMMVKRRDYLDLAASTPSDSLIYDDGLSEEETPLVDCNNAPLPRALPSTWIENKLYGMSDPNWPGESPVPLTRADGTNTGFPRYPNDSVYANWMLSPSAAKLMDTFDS
Chain of UniProt Q96Q40 (whole entry, looked up): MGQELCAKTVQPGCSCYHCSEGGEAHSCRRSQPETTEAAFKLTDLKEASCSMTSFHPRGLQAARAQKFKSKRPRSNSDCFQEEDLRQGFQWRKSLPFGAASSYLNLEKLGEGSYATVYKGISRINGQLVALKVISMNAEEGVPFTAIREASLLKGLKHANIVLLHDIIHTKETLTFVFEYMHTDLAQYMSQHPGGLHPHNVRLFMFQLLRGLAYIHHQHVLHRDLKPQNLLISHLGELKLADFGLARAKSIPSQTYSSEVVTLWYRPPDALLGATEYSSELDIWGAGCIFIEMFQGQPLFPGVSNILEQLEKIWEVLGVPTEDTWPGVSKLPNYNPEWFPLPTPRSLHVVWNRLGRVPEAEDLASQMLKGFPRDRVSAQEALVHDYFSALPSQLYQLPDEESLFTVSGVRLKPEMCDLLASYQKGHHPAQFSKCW
Chain of UniProt Q8TDX7 (whole entry, looked up): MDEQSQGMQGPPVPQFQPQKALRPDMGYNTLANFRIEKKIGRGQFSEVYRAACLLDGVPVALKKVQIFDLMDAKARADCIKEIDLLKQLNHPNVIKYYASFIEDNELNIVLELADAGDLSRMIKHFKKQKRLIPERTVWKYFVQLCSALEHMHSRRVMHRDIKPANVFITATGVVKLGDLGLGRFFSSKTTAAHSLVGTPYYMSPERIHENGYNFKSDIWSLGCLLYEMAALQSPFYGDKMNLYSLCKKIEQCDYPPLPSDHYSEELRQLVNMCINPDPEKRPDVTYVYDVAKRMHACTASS
Chain of UniProt Q86Y07 (whole entry, looked up): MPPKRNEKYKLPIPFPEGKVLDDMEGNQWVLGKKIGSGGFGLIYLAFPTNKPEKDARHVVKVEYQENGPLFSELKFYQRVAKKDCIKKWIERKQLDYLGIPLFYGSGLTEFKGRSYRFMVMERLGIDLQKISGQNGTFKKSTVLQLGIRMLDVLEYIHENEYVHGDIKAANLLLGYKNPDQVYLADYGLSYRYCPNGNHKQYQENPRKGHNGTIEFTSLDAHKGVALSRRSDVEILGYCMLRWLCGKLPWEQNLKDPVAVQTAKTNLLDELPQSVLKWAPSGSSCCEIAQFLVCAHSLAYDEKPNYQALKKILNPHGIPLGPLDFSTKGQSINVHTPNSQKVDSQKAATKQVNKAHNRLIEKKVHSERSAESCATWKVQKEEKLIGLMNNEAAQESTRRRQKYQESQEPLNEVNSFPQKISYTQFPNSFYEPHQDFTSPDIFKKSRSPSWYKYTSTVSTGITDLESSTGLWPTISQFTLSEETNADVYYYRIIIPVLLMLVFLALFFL

Block 1 — method: competition with immobilised ligand; concentration: 1 µM; quantity: remaining binding
SMILES: O=C(Nc1cccnn1)N1CC(C/C=C/c2cncc(Oc3ccc(C(F)(F)F)cn3)n2)C1
target = RET (Homo sapiens, UniProt P07949, M918T); observed = cell-free assay; value = 96%
target = FLT3 (Homo sapiens, UniProt P36888, D835Y); observed = cell-free assay; value = 100%
target = CDK14 (Homo sapiens, UniProt O94921); observed = cell-free assay; value = 100%
target = GAK (Homo sapiens, UniProt O14976); observed = cell-free assay; value = 100%
target = Cyclin-dependent kinase 4, with cyclin D3 (CDK4, Homo sapiens, UniProt P11802); observed = cell-free assay; value = 94%
target = VRK2 (Homo sapiens, UniProt Q86Y07); observed = cell-free assay; value = 97%
target = PRKG2 (Homo sapiens, UniProt Q13237); observed = cell-free assay; value = 91%
target = CDK11A (Homo sapiens, UniProt Q9UQ88); observed = binding; value = 100%
target = PRKX (Homo sapiens, UniProt P51817); observed = cell-free assay; value = 92%
target = CDK15 (Homo sapiens, UniProt Q96Q40); observed = cell-free assay; value = 100%
target = KIT (Homo sapiens, UniProt P10721, D816H); observed = cell-free assay; value = 74%
target = ALK (Homo sapiens, UniProt Q9UM73, C1156Y); observed = cell-free assay; value = 81%
target = EGFR (Homo sapiens, UniProt P00533, A750P/del747-749); observed = cell-free assay; value = 95%
target = EGFR (Homo sapiens, UniProt P00533, del747-752/P753S); observed = cell-free assay; value = 100%
target = NEK7 (Homo sapiens, UniProt Q8TDX7); observed = cell-free assay; value = 100%
target = PIK3C3 (Homo sapiens, UniProt Q8NEB9); observed = cell-free assay; value = 88%
target = ERBB4 (Homo sapiens, UniProt Q15303); observed = cell-free assay; value = 100%
target = ACVR2A (Homo sapiens, UniProt P27037); observed = cell-free assay; value = 100%
target = Tyrosine-protein kinase ABL1, phosphorylated (ABL1, Homo sapiens, UniProt P00519, Y253F); observed = cell-free assay; value = 92%
target = EPHA1 (Homo sapiens, UniProt P21709); observed = cell-free assay; value = 100%
target = Macrophage colony-stimulating factor 1 receptor, autoinhibited (CSF1R, Homo sapiens, UniProt P07333); observed = cell-free assay; value = 87%

Block 2 — host: mouse; medium: microsomes or S9; concentration: 2 µM; time: 0.5 h; quantity: remaining compound
SMILES = CC(O)c1ccc(N2CCN(CCCNC(=O)c3cc4ccccc4s3)CC2)cc1 (stereo not shown); value = 53.3%
SMILES = Cc1cc(C)n2c(CN3CCN(C)C[C@@H]3C(C)C)cnc2n1; value = 94.9%
SMILES = O=C(OCCCn1ccccc1=O)c1cncc2ccccc12; value = 0.0187%
SMILES = COc1ccccc1CNC(=O)c1cc2c(s1)CS(=O)(=O)C2; value = 49.6%
SMILES = COc1ccccc1-c1n[nH]cc1CN1CCCN(S(=O)(=O)c2cn(C)cn2)C(c2ccccc2)CC(=O)NCC1 (stereo not shown); value = 40%
SMILES = Cc1cc(=O)n2c3ccccc3nc2n1CC(=O)c1ccco1; value = 2.23%
SMILES = CCc1c[nH]c2ncnc(NCC(Cc3ccccc3)c3ccccn3)c12 (stereo not shown); value = 0.12%
SMILES = CN(C)S(=O)(=O)c1cc(C(=O)NCC(c2ccccc2)N2CCOCC2)c(Cl)cc1Cl (stereo not shown); value = 0.568%

Block 3 — cell line: mouse MPNST tumor cells; method: high-content immunofluorescence imaging; item: nuclear SOX9; concentration: 10 µM; time: 12 h; notes: mean of 2 replicates; baseline: DMSO control; reading: higher = more nuclear SOX9; quantity: nuclear SOX9 intensity
SMILES = CCOc1ccc(-c2nc(-c3cccc4c3CCC4NCCO)no2)cc1OCC (stereo not shown); value = 217 % of DMSO
SMILES = CCn1c(=O)[nH]c2ccccc21; value = 104 % of DMSO
SMILES = CCOC(=O)[C@@H](C)Oc1cccc2c(=O)n(CC(=O)Nc3ccc4c(c3)OCCO4)ccc12; value = 106 % of DMSO
SMILES = Cc1nc2ccc(NC(=O)Nc3ccnc4cccnc34)cc2o1; value = 112 % of DMSO
SMILES = O=C(NCc1cccc(O)c1)Nc1nc(-c2ccncc2)cs1; value = 110 % of DMSO
SMILES = CCOC(=O)[C@H](CCc1ccccc1)N[C@@H](C)C(=O)N1Cc2ccccc2C[C@H]1C(=O)O; value = 102 % of DMSO
SMILES = O=c1[nH]c(=O)n([C@H]2C[C@H](O)[C@@H](CO)O2)cc1F; value = 109 % of DMSO
SMILES = Cc1cc(/C(=C/Nc2ccc(Cl)cc2)C(=O)Nc2ccc(Cl)cc2)on1; value = 123 % of DMSO
SMILES = Cc1cc2c(cc1Cl)N(C(=O)Nc1ccc(Oc3cccnc3C)nc1)CC2; value = 117 % of DMSO
SMILES = O=C1OCCN1/N=C/c1ccc([N+](=O)[O-])o1; value = 101 % of DMSO and 97.2 % of DMSO
SMILES = CC(=O)[C@H]1CC[C@H]2[C@@H]3C=CC4=CC(=O)CC[C@@]4(C)[C@@H]3CC[C@]12C; value = 104 % of DMSO
SMILES = COC(=O)Nc1nc2cc(C(=O)c3ccccc3)ccc2[nH]1; value = 210 % of DMSO
SMILES = NS(=O)(=O)c1cc2c(cc1Cl)NC(CC1CCCC1)NS2(=O)=O (stereo not shown); value = 98.9 % of DMSO

Block 4 — observed: enzyme activity; action: inhibitor; concentration: 0.5 µM; baseline: control; quantity: remaining activity
Target: Vascular endothelial growth factor receptor 3 (FLT4, Homo sapiens, UniProt P35916)
Chain of UniProt P35916 (whole entry, looked up): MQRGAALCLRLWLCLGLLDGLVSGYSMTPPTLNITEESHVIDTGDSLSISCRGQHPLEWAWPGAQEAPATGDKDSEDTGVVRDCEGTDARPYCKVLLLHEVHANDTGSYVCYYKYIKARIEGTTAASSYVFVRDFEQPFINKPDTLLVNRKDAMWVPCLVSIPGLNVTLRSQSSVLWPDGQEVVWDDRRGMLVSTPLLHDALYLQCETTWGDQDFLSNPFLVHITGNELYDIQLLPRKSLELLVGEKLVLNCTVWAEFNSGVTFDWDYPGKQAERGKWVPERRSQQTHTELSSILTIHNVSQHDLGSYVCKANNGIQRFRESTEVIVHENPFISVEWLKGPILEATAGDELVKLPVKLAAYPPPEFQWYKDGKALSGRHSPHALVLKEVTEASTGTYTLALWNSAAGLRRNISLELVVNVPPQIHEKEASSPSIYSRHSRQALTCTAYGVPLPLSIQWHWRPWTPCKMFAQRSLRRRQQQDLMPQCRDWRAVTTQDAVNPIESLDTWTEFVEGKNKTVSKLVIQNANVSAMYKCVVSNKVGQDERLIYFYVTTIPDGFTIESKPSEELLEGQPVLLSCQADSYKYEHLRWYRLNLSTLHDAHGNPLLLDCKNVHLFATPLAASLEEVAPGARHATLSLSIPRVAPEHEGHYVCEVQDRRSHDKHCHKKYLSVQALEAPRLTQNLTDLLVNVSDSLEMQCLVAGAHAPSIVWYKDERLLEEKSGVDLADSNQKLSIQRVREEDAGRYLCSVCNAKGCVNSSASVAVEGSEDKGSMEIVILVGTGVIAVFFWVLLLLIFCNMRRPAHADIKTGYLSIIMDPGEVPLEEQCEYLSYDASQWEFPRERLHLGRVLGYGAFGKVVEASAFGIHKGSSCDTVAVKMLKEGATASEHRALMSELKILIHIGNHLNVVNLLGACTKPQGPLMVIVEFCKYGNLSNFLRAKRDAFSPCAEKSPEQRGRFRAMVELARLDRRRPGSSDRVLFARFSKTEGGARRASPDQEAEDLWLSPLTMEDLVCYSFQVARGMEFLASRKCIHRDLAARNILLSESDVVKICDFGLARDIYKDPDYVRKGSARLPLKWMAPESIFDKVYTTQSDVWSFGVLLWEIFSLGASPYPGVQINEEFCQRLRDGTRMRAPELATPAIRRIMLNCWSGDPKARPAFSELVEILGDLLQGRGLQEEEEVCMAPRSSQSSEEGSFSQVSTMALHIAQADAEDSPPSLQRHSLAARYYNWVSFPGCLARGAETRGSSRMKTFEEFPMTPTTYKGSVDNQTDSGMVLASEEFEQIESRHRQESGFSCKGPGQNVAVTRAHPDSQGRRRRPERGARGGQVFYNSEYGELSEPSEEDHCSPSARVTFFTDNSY
SMILES = O=C1Nc2ccccc2/C1=C\c1c(Cl)[nH]c2ccccc12; value = 108%
SMILES = Oc1cccc(-c2nc(N3CCOCC3)c3oc4ncccc4c3n2)c1; value = 104%
SMILES = CCCNC(=O)Nc1ccc(Oc2ncnc3cc(OC)c(OC)cc23)cc1Cl; value = 38.5%
SMILES = CN1CCN(c2ccc3nc(-c4c(N)c5c(F)cccc5[nH]c4=O)[nH]c3c2)CC1; value = 11.3%
SMILES = CN(C)S(=O)(=O)c1ccc2c(c1)/C(=C/c1cc3c([nH]1)CCCC3)C(=O)N2; value = 78.1%
SMILES = O=C(c1cc2cc(O)ccc2[nH]1)c1cc2cc(O)ccc2[nH]1; value = 67.1%
SMILES = O=C1NC(=O)c2c1c1c3ccccc3[nH]c1c1[nH]c3cc(Br)ccc3c21; value = 28%
SMILES = Cc1ccc(S(=O)(=O)/C=C/C#N)cc1; value = 96.5%
SMILES = COc1ccc2c(c1)c(C1=C(c3c[nH]c4ccccc34)C(=O)NC1=O)cn2CCCN(C)C; value = 23.6%
SMILES = COc1cccc(-c2cc(=O)c3ccccc3o2)c1N; value = 90.8%
SMILES = N#Cc1cnc2cnc(NCc3cccnc3)cc2c1Nc1ccc(F)c(Cl)c1; value = 96.2%
SMILES = O=c1cc(N2CCOCC2)oc2c(-c3ccccc3)cccc12; value = 96.4%
SMILES = O=C1NC(=O)c2c1c1c3ccccc3[nH]c1n1cncc21; value = 56.6%
SMILES = c1ccc2c(-c3ccncc3)c[nH]c2c1; value = 119%
SMILES = c1ccc(-c2n[nH]c3c2oc2ccccc23)cc1; value = 108%
SMILES = Cc1cc(Nc2cc(N3CCN(C)CC3)nc(Sc3ccc(NC(=O)C4CC4)cc3)n2)[nH]n1; value = 55.4%
SMILES = O=Nc1c(-c2c(O)[nH]c3cc(Br)ccc23)[nH]c2ccccc12; value = 50.8%
SMILES = O=C1Nc2ccc(Br)cc2/C1=C/c1cc2c([nH]1)CCCC2; value = 56.1%
SMILES = O=C1Cc2c([nH]c3ccc(Br)cc23)-c2ccccc2N1; value = 78.7%

Some of these lines once more (block 4):
SMILES = N#Cc1cnc2cnc(NCc3cccnc3)cc2c1Nc1ccc(F)c(Cl)c1; value = 96.2%
SMILES = O=c1cc(N2CCOCC2)oc2c(-c3ccccc3)cccc12; value = 96.4%
SMILES = O=C1NC(=O)c2c1c1c3ccccc3[nH]c1n1cncc21; value = 56.6%
SMILES = c1ccc2c(-c3ccncc3)c[nH]c2c1; value = 119%
SMILES = c1ccc(-c2n[nH]c3c2oc2ccccc23)cc1; value = 108%
SMILES = Cc1cc(Nc2cc(N3CCN(C)CC3)nc(Sc3ccc(NC(=O)C4CC4)cc3)n2)[nH]n1; value = 55.4%
SMILES = O=Nc1c(-c2c(O)[nH]c3cc(Br)ccc23)[nH]c2ccccc12; value = 50.8%
SMILES = O=C1Nc2ccc(Br)cc2/C1=C/c1cc2c([nH]1)CCCC2; value = 56.1%
SMILES = O=C1Cc2c([nH]c3ccc(Br)cc23)-c2ccccc2N1; value = 78.7%
